Assay results from different studies.
Compare with care: the assays were run in different laboratories. “And” joins repeats or separate records; there may be more than shown. ± gives the spread as reported. Values after ≈ are worked out from the molar mass of the structure shown.

Structure (SMILES)	organism	test	test system	setting	scale	endpoint	value
CC[C@H](C)[C@H](NC(=O)[C@H](C)NC(=O)[C@H](CCCCN)NC(=O)[C@H](CC(C)C)NC(=O)[C@H](C)NC(=O)[C@@H](NC(=O)[C@H](Cc1c[nH]cn1)NC(=O)[C@H](CC(C)C)NC(=O)[C@@H](NC(=O)[C@@H](NC(=O)[C@H](CCCCN)NC(=O)[C@H](C)NC(=O)[C@H](C)NC(=O)[C@H](CO)NC(=O)[C@H](CCCCN)NC(=O)[C@H](Cc1ccccc1)NC(=O)[C@@H](NC(=O)[C@H](CCCCN)NC(=O)[C@H](CC(C)C)NC(=O)[C@H](Cc1ccccc1)NC(=O)[C@H](CO)NC(=O)[C@H](CCCCN)NC(=O)[C@H](Cc1c[nH]c2ccccc12)NC(=O)[C@H](CCCCN)NC(C)=O)[C@@H](C)O)[C@@H](C)O)C(C)C)[C@@H](C)O)C(=O)N[C@@H](CO)C(=O)N[C@@H](CO)C(N)=O	Klebsiella pneumoniae		ATCC 1705			MIC geometric mean	16 µg/mL (≈ 5.45 µM)
CN[C@H](CC(C)C)C(=O)N[C@H]1C(=O)N[C@@H](CC(N)=O)C(=O)N[C@H]2C(=O)N[C@H]3C(=O)N[C@H](C(=O)N[C@H](C(=O)O)c4cc(O)cc(O)c4-c4cc3ccc4O)[C@H](O)c3ccc(c(Cl)c3)Oc3cc2cc(c3O[C@@H]2O[C@H](CO)[C@@H](O)[C@H](O)[C@H]2O[C@H]2C[C@](C)(N)[C@H](O)[C@H](C)O2)Oc2ccc(cc2Cl)[C@H]1O	Gram-negative bacteria			concentration not given		antibacterial activity	inactive
COc1cc[nH]c1/C=C1\C(=O)Nc2ccc([N+](=O)[O-])c(N3CC[C@@H](O)C3)c21	human cytomegalovirus	western blot densitometry, item: pp28	HFF, AD169	0.01 µM	reference: DMSO	fold decrease in protein level	~4 fold
Cl.N=C(CC(O)c1cc2c(F)cc(F)cc2c2cc(C(F)(F)F)ccc12)Nc1ccc(Br)cc1 (stereo not shown)	Plasmodium berghei	Peters test	ANKA, mice	oral, 4 x 10 mg/kg		mean survival time	21 days
CC(C)CC1NC(=O)C(C(=O)NC(C(=O)NC2C(=O)N3C2SC(C)(C)C3C(=O)O)c2ccccc2)=C1O (stereo not shown)	Escherichia coli		ΔtolC JW5503-1	200 µM, added: 30 µg/mL 2,2'-bipyridyl		zone of inhibition	16.7 mm
N=C(N)NCCC[C@H](NC(=O)[C@H](Cc1c[nH]c2ccccc12)NC(=O)[C@@H](N)CCCNC(=N)N)C(=O)N[C@@H](Cc1c[nH]c2ccccc12)C(=O)N[C@@H](CCC(N)=O)C(=O)N[C@@H](Cc1ccccc1)C(=O)N[C@@H](CCC(N)=O)C(=O)N[C@@H](Cc1ccccc1)C(=O)N[C@@H](CCCCN)C(N)=O	Bacillus subtilis					MBC	19 µM (≈ 26.2 µg/mL)
Nc1ncnc2c1ncn2[C@@H]1O[C@@H]2COP(=O)(O)O[C@H]3[C@@H](O)[C@H](n4cnc5c(=O)[nH]cnc54)O[C@@H]3COP(=O)(O)O[C@H]2[C@H]1O	West Nile virus	RNA sequencing, item: development, nervous system, R-HSA-9675108	HFF-1 cells	concentration not given, downregulated pathway	reference: WNV-infected untreated cells	fold enrichment	2.95
COc1cnc(OC)n2nc(NS(=O)(=O)c3c(OCC(F)F)cccc3C(F)(F)F)nc12	Setaria viridis		greenhouse	postemergence, 150 g ai/ha, 21 days		fresh weight inhibition	77.41 ± 0.72%
CN(C)c1nc(NCc2ccc(OC(F)(F)F)cc2)c(/N=N/c2ccc(Cl)cc2)c(N(C)C)n1	Plutella xylostella	leaf dipping		200 mg/L, 96 h		mortality	73.3 ± 5.8%
Cn1c(=O)ccc2ccc(F)c(CCNC[C@H]3CN(c4cnc5c(n4)NC(=O)CO5)C(=O)O3)c21	Proteus spp.					MIC50	0.12 µg/mL (≈ 0.256 µM)
COC(=O)c1ccc2c(ccc3oc([N+](=O)[O-])cc32)c1	Mycobacterium marinum	REMA	ATCC BAA-535			MIC90	0.0625 µg/mL (≈ 0.23 µM)
C[C@H]1COCCN1c1nc(NCc2cccnc2C(F)(F)F)c2cccnc2n1	Brugia malayi		SCID mouse	dose not given, 6 weeks post-treatment, dosing x14d		mice with microfilariae	20%
Cn1cc(NC(=O)c2cc(NC(=O)CN=C(N)N)cn2C)cc1C(=O)NCCC(=N)N	Bacillus subtilis	bacterial cytological profiling	ATCC 6633			DNA width	0.69 µm and 0.75 µm and 0.77 µm
